# Published values gathered from unrelated publications.
# Protocols differ between the studies behind these lines. Values joined by “and” are separate records of one study, mostly repeats; a detail may differ. Numbers after ± are the reported error.
# GBA2: Beta-glucosidase (GBA2, Homo sapiens, UniProt Q9HCG7)
# Chain of UniProt Q9HCG7 (whole entry, looked up): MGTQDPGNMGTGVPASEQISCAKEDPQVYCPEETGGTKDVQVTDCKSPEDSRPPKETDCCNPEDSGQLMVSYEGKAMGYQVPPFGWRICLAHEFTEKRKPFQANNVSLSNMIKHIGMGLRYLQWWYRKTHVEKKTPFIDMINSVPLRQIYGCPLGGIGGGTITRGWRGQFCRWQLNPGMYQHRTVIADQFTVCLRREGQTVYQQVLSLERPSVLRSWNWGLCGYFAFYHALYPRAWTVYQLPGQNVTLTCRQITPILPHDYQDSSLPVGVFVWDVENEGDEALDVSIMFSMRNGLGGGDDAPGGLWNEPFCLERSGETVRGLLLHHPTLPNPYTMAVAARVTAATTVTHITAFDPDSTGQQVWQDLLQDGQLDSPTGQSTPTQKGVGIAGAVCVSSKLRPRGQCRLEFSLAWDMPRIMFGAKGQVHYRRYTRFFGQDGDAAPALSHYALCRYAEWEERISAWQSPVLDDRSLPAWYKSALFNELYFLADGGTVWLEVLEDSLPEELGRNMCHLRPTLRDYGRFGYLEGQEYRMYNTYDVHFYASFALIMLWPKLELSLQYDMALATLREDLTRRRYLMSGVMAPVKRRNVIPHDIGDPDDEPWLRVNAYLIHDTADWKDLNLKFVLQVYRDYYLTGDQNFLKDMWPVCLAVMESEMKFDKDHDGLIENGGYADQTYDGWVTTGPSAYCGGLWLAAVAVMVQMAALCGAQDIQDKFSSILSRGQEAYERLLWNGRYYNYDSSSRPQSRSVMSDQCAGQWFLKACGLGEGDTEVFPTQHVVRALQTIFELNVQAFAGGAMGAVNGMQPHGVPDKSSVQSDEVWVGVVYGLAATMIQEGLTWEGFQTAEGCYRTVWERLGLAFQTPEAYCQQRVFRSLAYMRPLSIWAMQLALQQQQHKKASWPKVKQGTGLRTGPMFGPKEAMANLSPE
# CASP3: Caspase-3 (CASP3, Homo sapiens, UniProt P42574)
# Chain of UniProt P42574 (whole entry, looked up): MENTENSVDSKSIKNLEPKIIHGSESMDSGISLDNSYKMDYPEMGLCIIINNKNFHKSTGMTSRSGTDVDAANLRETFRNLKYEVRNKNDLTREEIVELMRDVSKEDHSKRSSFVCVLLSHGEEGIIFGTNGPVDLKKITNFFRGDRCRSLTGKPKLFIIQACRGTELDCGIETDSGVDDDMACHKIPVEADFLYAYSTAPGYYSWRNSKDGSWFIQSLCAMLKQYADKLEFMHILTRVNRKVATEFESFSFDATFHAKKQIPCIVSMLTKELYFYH
# T1: hairpin RNA, UUCG tetraloop capped P1; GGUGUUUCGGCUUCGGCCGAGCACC
# Chain of UniProt Q93008 (whole entry, looked up): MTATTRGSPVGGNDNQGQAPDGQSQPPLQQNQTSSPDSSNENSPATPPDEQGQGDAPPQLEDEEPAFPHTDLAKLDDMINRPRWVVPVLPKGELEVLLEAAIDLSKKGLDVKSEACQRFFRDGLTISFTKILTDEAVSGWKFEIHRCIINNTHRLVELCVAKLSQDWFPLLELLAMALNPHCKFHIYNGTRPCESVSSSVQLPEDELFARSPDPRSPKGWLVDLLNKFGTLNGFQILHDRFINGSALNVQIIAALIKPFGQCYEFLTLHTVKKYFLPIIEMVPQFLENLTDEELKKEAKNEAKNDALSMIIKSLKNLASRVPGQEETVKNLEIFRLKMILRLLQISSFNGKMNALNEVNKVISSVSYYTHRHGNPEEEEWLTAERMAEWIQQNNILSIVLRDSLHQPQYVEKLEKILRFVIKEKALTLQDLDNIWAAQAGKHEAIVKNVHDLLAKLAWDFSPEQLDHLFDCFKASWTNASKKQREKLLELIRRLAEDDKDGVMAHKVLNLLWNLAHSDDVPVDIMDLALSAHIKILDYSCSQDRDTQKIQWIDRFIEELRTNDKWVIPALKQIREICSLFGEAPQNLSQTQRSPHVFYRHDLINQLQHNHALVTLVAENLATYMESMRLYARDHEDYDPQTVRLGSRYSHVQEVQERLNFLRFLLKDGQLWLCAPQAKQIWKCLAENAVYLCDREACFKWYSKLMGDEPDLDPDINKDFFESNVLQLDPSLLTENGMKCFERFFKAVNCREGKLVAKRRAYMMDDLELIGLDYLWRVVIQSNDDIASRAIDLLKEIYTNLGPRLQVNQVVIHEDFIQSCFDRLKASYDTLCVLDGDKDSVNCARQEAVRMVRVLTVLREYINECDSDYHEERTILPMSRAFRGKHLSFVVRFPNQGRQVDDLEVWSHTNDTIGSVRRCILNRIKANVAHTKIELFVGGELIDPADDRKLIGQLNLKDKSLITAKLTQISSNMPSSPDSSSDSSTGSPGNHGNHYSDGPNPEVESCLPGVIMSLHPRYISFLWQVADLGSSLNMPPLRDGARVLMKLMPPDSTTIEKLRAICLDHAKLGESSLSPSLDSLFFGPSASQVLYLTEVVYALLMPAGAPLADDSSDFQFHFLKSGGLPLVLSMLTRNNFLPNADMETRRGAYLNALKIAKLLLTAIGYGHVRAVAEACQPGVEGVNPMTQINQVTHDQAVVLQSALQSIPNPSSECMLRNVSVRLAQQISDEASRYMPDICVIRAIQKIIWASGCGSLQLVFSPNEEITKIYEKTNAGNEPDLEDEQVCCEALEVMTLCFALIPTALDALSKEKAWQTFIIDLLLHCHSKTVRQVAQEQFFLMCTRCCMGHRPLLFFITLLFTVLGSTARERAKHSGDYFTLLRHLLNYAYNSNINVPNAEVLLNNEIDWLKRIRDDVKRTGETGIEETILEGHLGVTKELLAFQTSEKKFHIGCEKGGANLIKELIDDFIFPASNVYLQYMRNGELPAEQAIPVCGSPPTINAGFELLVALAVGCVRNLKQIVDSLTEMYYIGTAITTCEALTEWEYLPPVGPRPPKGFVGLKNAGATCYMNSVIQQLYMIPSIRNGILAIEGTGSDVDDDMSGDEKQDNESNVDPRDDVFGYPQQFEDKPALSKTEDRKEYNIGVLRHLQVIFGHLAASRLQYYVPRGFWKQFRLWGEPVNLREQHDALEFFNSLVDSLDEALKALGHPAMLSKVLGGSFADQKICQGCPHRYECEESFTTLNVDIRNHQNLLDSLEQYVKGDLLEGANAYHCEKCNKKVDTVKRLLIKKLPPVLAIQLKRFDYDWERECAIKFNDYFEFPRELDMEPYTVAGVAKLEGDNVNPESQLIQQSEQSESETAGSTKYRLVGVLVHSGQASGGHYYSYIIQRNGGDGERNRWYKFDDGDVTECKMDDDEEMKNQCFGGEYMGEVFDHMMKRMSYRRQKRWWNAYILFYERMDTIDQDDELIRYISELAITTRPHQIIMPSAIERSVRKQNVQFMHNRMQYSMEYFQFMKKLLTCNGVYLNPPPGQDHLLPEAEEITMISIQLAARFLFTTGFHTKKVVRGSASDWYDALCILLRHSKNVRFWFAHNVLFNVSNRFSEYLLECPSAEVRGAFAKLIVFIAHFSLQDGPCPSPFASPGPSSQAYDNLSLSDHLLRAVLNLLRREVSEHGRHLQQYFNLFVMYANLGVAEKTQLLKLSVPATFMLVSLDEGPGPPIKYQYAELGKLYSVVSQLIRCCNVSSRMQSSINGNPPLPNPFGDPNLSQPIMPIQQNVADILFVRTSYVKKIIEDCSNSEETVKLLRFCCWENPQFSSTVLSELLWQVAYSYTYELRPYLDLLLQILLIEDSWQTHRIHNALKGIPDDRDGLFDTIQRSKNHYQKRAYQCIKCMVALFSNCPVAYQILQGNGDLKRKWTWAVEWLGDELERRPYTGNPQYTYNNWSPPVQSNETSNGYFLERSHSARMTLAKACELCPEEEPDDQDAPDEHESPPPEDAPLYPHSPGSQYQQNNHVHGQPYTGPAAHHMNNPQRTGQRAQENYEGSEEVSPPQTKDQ
# Chain of UniProt Q96EY1 (whole entry, looked up): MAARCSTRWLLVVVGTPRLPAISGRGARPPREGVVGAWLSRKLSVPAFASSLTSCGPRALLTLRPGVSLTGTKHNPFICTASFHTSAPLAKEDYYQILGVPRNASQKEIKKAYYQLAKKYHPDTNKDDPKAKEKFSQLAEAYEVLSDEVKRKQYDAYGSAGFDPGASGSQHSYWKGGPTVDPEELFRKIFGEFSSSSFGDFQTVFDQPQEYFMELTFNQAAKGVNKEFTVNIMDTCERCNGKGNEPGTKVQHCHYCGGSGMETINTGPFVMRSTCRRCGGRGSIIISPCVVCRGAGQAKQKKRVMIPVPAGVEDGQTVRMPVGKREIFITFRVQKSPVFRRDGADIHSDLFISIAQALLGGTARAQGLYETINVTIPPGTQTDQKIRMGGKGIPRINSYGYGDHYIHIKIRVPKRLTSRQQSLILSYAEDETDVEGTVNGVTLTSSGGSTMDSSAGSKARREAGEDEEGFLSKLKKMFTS
# Chain of UniProt Q92633 (whole entry, looked up): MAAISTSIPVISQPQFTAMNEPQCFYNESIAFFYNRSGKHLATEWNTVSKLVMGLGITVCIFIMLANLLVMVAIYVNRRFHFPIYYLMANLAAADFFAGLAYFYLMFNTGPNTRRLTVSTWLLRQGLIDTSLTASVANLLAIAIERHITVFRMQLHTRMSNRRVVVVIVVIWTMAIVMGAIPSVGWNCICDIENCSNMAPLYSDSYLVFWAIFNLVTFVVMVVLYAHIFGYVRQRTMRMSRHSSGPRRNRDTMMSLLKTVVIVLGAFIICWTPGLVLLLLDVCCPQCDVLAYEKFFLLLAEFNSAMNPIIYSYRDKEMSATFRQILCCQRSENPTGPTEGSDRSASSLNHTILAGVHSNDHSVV
# Chain of UniProt P15291 (whole entry, looked up): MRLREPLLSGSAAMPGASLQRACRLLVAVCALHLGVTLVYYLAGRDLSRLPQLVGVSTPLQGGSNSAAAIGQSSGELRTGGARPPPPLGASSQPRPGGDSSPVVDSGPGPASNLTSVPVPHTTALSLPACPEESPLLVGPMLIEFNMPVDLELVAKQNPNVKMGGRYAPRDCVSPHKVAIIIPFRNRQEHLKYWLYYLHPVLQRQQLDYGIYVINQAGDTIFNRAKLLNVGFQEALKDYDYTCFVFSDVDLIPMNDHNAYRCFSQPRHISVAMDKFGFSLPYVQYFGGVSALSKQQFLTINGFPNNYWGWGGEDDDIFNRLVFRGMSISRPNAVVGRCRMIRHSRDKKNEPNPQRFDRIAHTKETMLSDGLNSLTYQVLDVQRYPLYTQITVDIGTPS
SMILES,target,assay,test system,setting,how to read,endpoint,result
Cc1ccc(C[C@H](NC(=O)CN2CCCc3cc4cc(C(=O)NCCNC(=O)CCCC[C@@H]5SC[C@@H]6NC(=O)N[C@@H]65)c(=O)oc4cc32)C(=O)NC/C=C/S(=O)(=O)c2ccccc2)cc1,"Cathepsin B (CTSB, Homo sapiens, UniProt P07858)",inhibitor,,together with: Z-Arg-Arg-pNA,,kinact/Ki,279 M⁻¹ s⁻¹
N#Cc1cnc2sc(C(=O)O)cc2c1N1CCc2[nH]nc(C(=O)N[C@@H](CC(=O)NCCOCCN3CCOCC3)c3cccc(Br)c3)c2C1,"Interleukin-1 receptor type 1 (IL1R1, Homo sapiens, UniProt P14778)","SEAP reporter gene, antagonist",HEK-Blue IL-36R cells,"0.14 µM, 6 h, together with: IL-1β 5 ng/mL",reference: untreated,remaining activity,87.5%
Nc1nc(SCc2ccc(Cl)cc2)nn1S(=O)(=O)c1ccc2c(c1)CCO2,"Lysophospholipase-like protein 1 (LYPLAL1, Homo sapiens, UniProt Q5VWZ2)","enzyme activity, activator, gel-based ABPP",purified protein,"concentration not given, together with: FP-rhodamine",reference: DMSO,probe labeling increase,2.5 fold
O=C1c2sc(-c3ccc(N4CCC(CO)CC4)nc3F)nc2CCN1c1cccnc1,"TAR DNA-binding protein 43, aggregated (TARDBP, Homo sapiens, UniProt Q13148)",radioligand binding,control brain sarkosyl-insoluble extract,37.19 nM,,specific binding,0.103 nM
OC[C@@H]1[C@@H](O)[C@H](O)[C@@H](O)CN1CCCCCOCc1ccc(-c2ccc(Cl)cc2)cc1,GBA2,"inhibitor, 4MU-β-D-glucopyranoside",HEK293T homogenates overexpressing GBA2,,reference: GCS IC50 over GBA2 IC50,selectivity ratio,13
Cc1cc(=O)oc2cc(NC(=O)CCCCCCC(=O)NO)ccc12,"Histone deacetylase 8 (HDAC8, Homo sapiens, UniProt Q9BY41)",ITC,Tris-HCl buffer,"concentration not given, 278 K",,binding stoichiometry,0.8
OC[C@H]1N[C@H](CCCCCCOCC23CC4CC(CC(C4)C2)C3)[C@H](O)[C@@H](O)[C@@H]1O,GBA2,"inhibitor, 4MU-β-D-glucopyranoside",HEK293T homogenates overexpressing GBA2,,reference: GBA1 IC50 over GBA2 IC50,selectivity ratio,2
CCn1cc(-c2cccc(C(F)(F)F)c2)c2sc(C(=N)NC3CCS(=O)(=O)CC3)cc2c1=O,"Bromodomain adjacent to zinc finger domain protein 2B, bromodomain (BAZ2B, Homo sapiens, UniProt Q9UIF8)","thermal stability, DSF",,,,ΔTm,-0.1 °C
N#CN1CC[C@H](C(=O)Nc2nc3c(s2)CN(C(=O)Cn2cc(COCCOCCOCCOCCNC(=O)CCCC[C@@H]4SC[C@@H]5NC(=O)N[C@@H]54)nn2)CC3)C1,"Ubiquitin carboxyl-terminal hydrolase 9X (USP9X, Homo sapiens, UniProt Q93008)","probe binding, affinity probe, neutravidin pull-down LC-MS/MS","HEK293T, cell lysate","5 µM, 1 h, single replicate, unit not given",higher = more pulled down,iBAQ abundance,2.66e+06 and 2.42e+06 and 751000
O=C(NCC(F)(F)F)c1ccc(-c2cc(NCCO)ncn2)cc1,"Beta-1,4-galactosyltransferase 1 (B4GALT1, Homo sapiens, UniProt P15291)","enzyme activity, inhibitor, UDP-Glo",,100 µM,lower means stronger inhibition,luminescence,93600 a.u.
Nc1c(NCO)c2ccccc2oc1=O,"Alpha-1B adrenergic receptor (ADRA1B, Homo sapiens, UniProt P35368)","calcium mobilization, agonist",COS-7,500 µM,reference: 3 µM ionomycin,agonist activity,3.65 ± 0.12%
CCN(CC)C(CO)c1cccc2c(C)c(C)oc12 (stereo not shown),"Lysophosphatidic acid receptor 1 (LPAR1, Homo sapiens, UniProt Q92633)","G-protein dissociation, agonist, NanoBiT",HEK-293T,"100 pM, wild-type receptor",reference: baseline luminescence,fold change,0.956 and 1.02 and 0.912 and 0.968 and 1 and 0.969
CCOC(=O)C1CC(C)C2C=CC3CCN(C(=O)C4CCC5C=CC6(CCCN6C(=O)C(Cc6ccccc6Cl)NC(C)=O)C(=O)N54)C3C(=O)N12 (stereo not shown),"Vasodilator-stimulated phosphoprotein, EVH1 domain (VASP, Homo sapiens, UniProt P50552)",fluorescence titration,,25 °C,,binding free energy,-8.34 kcal/mol
Cc1cccc(-c2ccc(COCCCCCN3C[C@H](O)[C@@H](O)[C@H](O)[C@H]3CO)cc2)c1,GBA2,"inhibitor, 4MU-β-D-glucopyranoside",HEK293T homogenates overexpressing GBA2,,reference: GCS IC50 over GBA2 IC50,selectivity ratio,50
CCCCCCCCCCCCCCCC(=O)N[C@@H](CCC(=O)O)C(=O)NCCCC[C@H](NC(=O)[C@H](CCCCNC(=N)N)NC(=O)[C@H](CCC(N)=O)NC(=O)[C@H](Cc1c[nH]cn1)NC(=O)[C@H](CCCC)NC(=O)[C@H](CC(C)C)NC(=O)[C@H](CCC(N)=O)NC(=O)[C@@H](NC(=O)[C@H](CCC(=O)O)NC(=O)C(C)(C)NC(=O)[C@@H](NC(=O)C1(N)CCCC1)C(C)C)[C@@H](C)CC)C(N)=O,"Parathyroid hormone/parathyroid hormone-related peptide receptor (PTH1R, Homo sapiens, UniProt Q03431)","cAMP response, agonist, GloSensor cAMP",GP-2.3,ligand-on phase,,Emax,95.2 ± 6.8%
OC[C@@H]1[C@@H](O)[C@H](O)[C@@H](O)CN1CCCCCOCc1ccc(-c2ccccc2)c(C(F)(F)F)c1,GBA2,"inhibitor, 4MU-β-D-glucopyranoside",HEK293T homogenates overexpressing GBA2,,reference: GCS IC50 over GBA2 IC50,selectivity ratio,313
NC[C@H]1O[C@H](O[C@H]2[C@H](O)[C@@H](O[C@H]3O[C@H](CO)[C@@H](O)[C@H](N)[C@H]3O)[C@H](N)C[C@@H]2N)[C@H](N)C[C@@H]1O,"T1, hairpin RNA, UUCG tetraloop capped P1",1H NMR titration,,together with: KCl 50 mM,,binding,binds weakly
CC(=O)N[C@@H](CC(=O)O)C(=O)N[C@@H](CCC(=O)O)C(=O)N[C@@H](CC(C)C)C(=O)N[C@@H](CC(=O)O)C(=O)COC(=O)c1c(C)cccc1C,CASP3,"enzyme activity, inhibitor",,,,kinact/KI,3.73e+06 M⁻¹ s⁻¹
O=C(NC[C@@H](Cc1ccc(F)cc1)N1CCC(O)(C(F)(F)F)CC1)C1(c2ccc(Cl)cc2)CCCC1,"Transient receptor potential cation channel subfamily A member 1 (TRPA1, Homo sapiens, UniProt O75762, I906A)","calcium influx, agonist",,,reference: I906A mutant over wild type,EC50 fold change,6.8
CC(=O)N[C@@H](CC(C)C)C(=O)N[C@H](C(=O)N[C@@H](C)C(=O)N[C@@H](CC(=O)O)C(=O)COC(=O)c1c(C)cccc1C)C(C)(C)C,CASP3,"enzyme activity, inhibitor",,,,kinact/KI,24500 M⁻¹ s⁻¹
OC[C@@H]1[C@@H](O)[C@H](O)[C@@H](O)CN1CCCCCOCc1ccc(-c2ccc(F)cc2)cc1,GBA2,"inhibitor, 4MU-β-D-glucopyranoside",HEK293T homogenates overexpressing GBA2,,reference: GBA1 IC50 over GBA2 IC50,selectivity ratio,400
N=C(N)c1ccc(CN(Cc2ccc(C(=N)N)cc2)C2CC2)cc1,"Protein arginine N-methyltransferase 5 (PRMT5, Homo sapiens, UniProt O14744)","enzyme activity, inhibitor, radiometric",,20 µM,,remaining activity,105%
CCCCCCN1C[C@H](O)[C@@H](O)[C@H](O)[C@H]1CO,GBA2,"inhibitor, 4MU-β-D-glucopyranoside",HEK293T homogenates overexpressing GBA2,,reference: GBA1 IC50 over GBA2 IC50,selectivity ratio,727
Fc1ccc(Nc2nc(NC3CCCCC3)c3ccccc3n2)cc1F,"Beta-2 adrenergic receptor (ADRB2, Homo sapiens, UniProt P07550, G162A)","β-arrestin2 recruitment, antagonist, BRET",,mutant G162A,reference: isoprenaline maximal response,maximal inhibition,4.9%
CC(C)=CCC/C(C)=C/CC/C(C)=C/COCCCCCN1C[C@H](O)[C@@H](O)[C@H](O)[C@@H]1CO,GBA2,"inhibitor, 4MU-β-D-glucopyranoside",HEK293T homogenates overexpressing GBA2,,reference: GCS IC50 over GBA2 IC50,selectivity ratio,25
N[C@H]1CC[C@H](Nc2nccc(-c3cccnc3Oc3ccc(NC(=O)NC4CC4)c4ccccc34)n2)CC1,"DnaJ homolog subfamily A member 3, mitochondrial (Homo sapiens, UniProt Q96EY1)","kinobead competition pulldown, refers to: DNAJA3",HEK293/HCT116 lysate mixture,"10 µM, 1 h, 4 °C",lower = stronger competition,log2 LFQ intensity,20.7 and 18.6 and 20.1 and 18.9
OC[C@@H]1[C@@H](O)[C@H](O)[C@@H](O)CN1CCCCCOCCc1ccsc1,GBA2,"inhibitor, 4MU-β-D-glucopyranoside",HEK293T homogenates overexpressing GBA2,,reference: GCS IC50 over GBA2 IC50,selectivity ratio,190
CC(=O)N[C@H](C(=O)N[C@@H](CCCC(=O)O)C(=O)N[C@@H](CCC1CCCCC1)C(=O)N[C@@H](CC(=O)O)C(=O)COC(=O)c1c(C)cccc1C)C(C)(C)C,CASP3,"enzyme activity, inhibitor",,,,kinact/KI,89500 M⁻¹ s⁻¹

# Excerpt of the above:
SMILES,target,assay,test system,setting,how to read,endpoint,result
Fc1ccc(Nc2nc(NC3CCCCC3)c3ccccc3n2)cc1F,"Beta-2 adrenergic receptor (ADRB2, Homo sapiens, UniProt P07550, G162A)","β-arrestin2 recruitment, antagonist, BRET",,mutant G162A,reference: isoprenaline maximal response,maximal inhibition,4.9%
CC(C)=CCC/C(C)=C/CC/C(C)=C/COCCCCCN1C[C@H](O)[C@@H](O)[C@H](O)[C@@H]1CO,GBA2,"inhibitor, 4MU-β-D-glucopyranoside",HEK293T homogenates overexpressing GBA2,,reference: GCS IC50 over GBA2 IC50,selectivity ratio,25
N[C@H]1CC[C@H](Nc2nccc(-c3cccnc3Oc3ccc(NC(=O)NC4CC4)c4ccccc34)n2)CC1,"DnaJ homolog subfamily A member 3, mitochondrial (Homo sapiens, UniProt Q96EY1)","kinobead competition pulldown, refers to: DNAJA3",HEK293/HCT116 lysate mixture,"10 µM, 1 h, 4 °C",lower = stronger competition,log2 LFQ intensity,20.7 and 18.6 and 20.1 and 18.9
